Experimental data gathered from unrelated publications.
Parts stem from different laboratories: compare values within a part only. Positions count from the first letter of the parent shown.

Series 1
Target: Interferon regulatory factor 5, full length, phosphomimetic (IRF5, Homo sapiens, UniProt Q13568-2, residues 1-514, K96S/S451D/S453D/S456D/S462D)
Technique: protein-binding microarray
Form: double-stranded DNA, one strand shown
Sample: in vitro
Tested at: 250 nM
Notes: 60-bp whole probe
Added: salmon DNA 0.4 mg/ml
Relative to: random background probes
Direction: higher = stronger binding
Shared flanks, not repeated: GCCTAGCAC … GTCTTGATTCGCTTGACGCTGCTG
| Strand | log fluorescence [z-score] |
| --- | --- |
| TCACTTTTCACTTTACAACTGTGCTAG | 2.5 |
| GGCGGTCTCGGACTGGGGACGTGCTAG | -0.5 |
| GACGGTATCCTGCTCCTGACGTGCTAG | -0.14 |
| GACGATTTCGGGTTTCGAGGCGTGCTA | 4.23 |
| GACGGTTCCCTTATCCTGACGTGCTAG | -0.394 |
| TCAAGTTTTCTTTTCATACTGTGCTAG | 1.97 |
| CCTATTATATATATCATAAGGTGCTAG | 0.607 |
| GACGGTCTGCTTTTCCTGACGTGCTAG | 0.178 |
| GACGAGCTCAGTCTCGAGACGTGCTAG | -0.282 |
| GACGCTATCGGGTATCGAGACGTGCTA | 3.93 |
| GACGGTCTTCTTATCCTGACGTGCTAG | 0.037 |
| TTAGGATTGGACTTTCGGTTAGTGCTA | 9.66 |
| GACGATCTCAGACTCGAGACGTGCTAG | -0.285 |
| GACGGTCTCGGACTGGGGCCGTGCTAG | -0.605 |
| TCAGCTTTGACTCTTTCACTGTGCTAG | 1.37 |
| CACGGTTTCGACTATCGGGACGTGCTA | 6.69 |
| TTAGGTTTCGGGCCTGGGTTAGTGCTA | 5.29 |
| GACGATATCAGTCGCGAGACGTGCTAG | 0.692 |

Series 2
Target: ABI1, truncated, D143A, DHFR fusion (Arabidopsis thaliana)
Technique: DHFR PCA, deep sequencing
Sample: yeast
Notes: methotrexate growth selection, single substitutions
Added: (+)-ABA 710 µM
Relative to: wild-type fitted maximum
Direction: higher = stronger binding
Parent: PYL1, truncated, DHFR fusion (Arabidopsis thaliana); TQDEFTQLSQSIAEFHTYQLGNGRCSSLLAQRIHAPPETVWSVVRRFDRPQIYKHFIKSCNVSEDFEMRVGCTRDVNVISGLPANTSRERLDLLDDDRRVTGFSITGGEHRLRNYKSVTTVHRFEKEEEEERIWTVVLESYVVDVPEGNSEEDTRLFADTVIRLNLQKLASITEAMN; partner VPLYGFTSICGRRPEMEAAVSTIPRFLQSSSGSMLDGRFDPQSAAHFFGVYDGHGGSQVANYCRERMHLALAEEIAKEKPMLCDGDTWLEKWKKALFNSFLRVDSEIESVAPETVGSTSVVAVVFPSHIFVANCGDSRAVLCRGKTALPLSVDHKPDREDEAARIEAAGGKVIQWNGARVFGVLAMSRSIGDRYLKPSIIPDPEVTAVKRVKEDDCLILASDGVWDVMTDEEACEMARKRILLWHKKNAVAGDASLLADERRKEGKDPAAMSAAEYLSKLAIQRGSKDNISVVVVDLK
| Substitution | relative binding score [%] |
| --- | --- |
| P83D | 89.2 |
| E131D | 107 |
| G102P | 4.98 |
| I162V | 103 |
| T106E | 103 |
| D144E | 93.9 |
| F103S | 5.12 |
| T173W | 85.9 |
| E67T | 96.4 |
| R32K | 101 |
| L138D | 1.13 |
| S59Q | 100 |
| S80I | 14.3 |
| F103W | 83.4 |
| L20W | 94.4 |
| F5S | 102 |
| I105R | -5.48 |
| D3M | 96.4 |
| V78S | 75.6 |
| N165M | 6.83 |
| E131T | 111 |
| Y115R | -9.06 |
| F15H | 101 |

Series 3
Target: CCND2, cyclin fold, Cln2 fusion (human)
Technique: yeast growth competition, sequencing
Sample: yeast
Notes: weak parent motif
Relative to: not given
Direction: higher = stronger binding
Parent: PKN2 docking peptide (human); VSAVQKLDFSDTM; partner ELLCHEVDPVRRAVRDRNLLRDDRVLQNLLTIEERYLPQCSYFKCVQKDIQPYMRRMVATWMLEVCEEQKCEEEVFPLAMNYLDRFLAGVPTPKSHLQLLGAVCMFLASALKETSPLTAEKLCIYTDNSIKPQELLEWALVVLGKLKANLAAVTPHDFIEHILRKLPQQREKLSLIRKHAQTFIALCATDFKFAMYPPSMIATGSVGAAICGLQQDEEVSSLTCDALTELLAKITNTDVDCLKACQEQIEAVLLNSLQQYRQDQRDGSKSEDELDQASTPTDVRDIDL
| Substitution | normalised enrichment score |
| --- | --- |
| F9V | -0.0271 |
| S2H | 0.418 |
| K6Q | 0.332 |
| M13V | 0.551 |
| D11V | 0.393 |
| V4M | 0.013 |
| D8V | 0.333 |
| A3M | 0.165 |
| K6I | 0.159 |
| D11L | 0.647 |
| S2E | 0.02 |
| D8N | 0.231 |
| D11G | 0.49 |
| L7E | 0.134 |
| M13P | 0.239 |
| S10A | 0.386 |
| D11M | 0.351 |
| S10W | 0.317 |
| V1S | 0.714 |
| T12M | 0.318 |

Series 4
Target: ATF1, bZIP domain (human)
Technique: DHFR protein complementation
Sample: yeast
Notes: single substitutions, most at no-binding floor
Relative to: wild-type JUN-FOS pair
Direction: higher = stronger binding
Parent: JUN, bZIP domain (human); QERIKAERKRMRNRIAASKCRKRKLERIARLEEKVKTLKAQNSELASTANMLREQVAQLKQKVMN; partner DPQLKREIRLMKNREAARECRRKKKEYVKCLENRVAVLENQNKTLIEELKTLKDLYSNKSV
| Substitution | binding fitness |
| --- | --- |
| A49K | -1.49 natural log |
| R53D | -1.57 natural log |
| L45I | -1.5 natural log |
| V56S | -1.53 natural log |
| R30P | -1.44 natural log |
| K34A | -1.46 natural log |
| L45D | -1.5 natural log |
| A29S | -1.53 natural log |
| R53I | -1.55 natural log |
| L38T | -1.55 natural log |
| T48M | -1.36 natural log |
| L59G | -1.38 natural log |
| S43V | -1.47 natural log |
| S47H | -1.57 natural log |
| S43C | -1.49 natural log |
| T37Q | -1.24 natural log |
| R30D | -1.43 natural log |
| A49R | -1.52 natural log |
| K36E | -1.51 natural log |
| E44T | -1.54 natural log |
| A46T | -1.51 natural log |
| Q55R | -1.46 natural log |
| E44M | -1.4 natural log |
| L52H | -1.56 natural log |
| A29I | -1.38 natural log |

Series 5
Target: RNA binding protein fox-1 homolog 2, RRM domain, GST-SBP tag (RBFOX2, Homo sapiens, UniProt O43251-10, residues 100-194)
Technique: RNA Bind-n-Seq
Form: RNA
Sample: in vitro
Tested at: 365 nM
Notes: natural RNA segment, single round, ends assumed
Relative to: no-protein control
Direction: higher = stronger binding
Shared flanks, not repeated: GGGAGUUCUACAGUCCGACGAUC … UGGAAUUCUCGGGUGCCAA
Target sequence (chain): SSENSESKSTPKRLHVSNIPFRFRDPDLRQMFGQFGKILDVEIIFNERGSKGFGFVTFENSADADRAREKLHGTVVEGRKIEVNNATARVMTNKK
| Strand | RBNS enrichment (R) |
| --- | --- |
| GUAUGUUGUUAGUUUUGAAAGACAUUCACUCAAGGAAAACACCAUCUCAACUUUGCCCGCUCACCAUGUCCCUUGCCCCCAUGUAGCCCAUUUCCCAGGUUAUGCUCUUU | 2.65 |
| UCCUCUGUGUUUCAAUACCUAUAUACCUAUUGAACAAAGCAGUAGGUAGACAUUUCCUAAAGUUGAAGCAGUAGCUUCAUAGAGUCUUGGUUACUUUAUUUUUUUUAAUG | 0.815 |
| ACUAAGCAUGGUCUGUAGCUAUUAAAAGCACACAAUCUGAAGGGCUGUAGAUGCACAGUAGUGUUUUCCCAGAGCAUGUUCAAAAGCCCUGGGUUCAAUCACAAUACUGA | 8.92 |
| CGUGCCGAUCUCGUGUUCUUUCCUGGAUCACAGACAUUAACAAAAAAGUUAAUUUAUGUGACUUGGCAGUUAUUCUAUACAUUUCCUGUCCAUUAAAAAUUUUAAAGGAA | 0.222 |
| CCAUCCGGGAUGGCCGCCUGUCCCUGACUAUUGAGUCCUGUUGUUGUAAGCCAGGCAUGGAGGGCUCCUGCCCUUCUGCUGAGCCACAGCCCAUUGCAGCACUGUGCUGG | 0.19 |
| UAGAAUCCCUGAACACUACUUCACACCUCCCCCACUGCCAGUUGGUUGAUGCUCUAGAGCCACUCUUUCUUAAUGCCAGAUUAUUUAAAGAAAAAUACAAGACAAAAACC | 1.03 |
| CCUCAUUCCAUCAGAGUAAUACACUUGCUUUAAUUCUUAAGCCUAAGUGAUACAAACAUGCCGAAUUACCUGUAAAGAAUGCAUUUAAAGCUAUUCUAAAUGGGUUUUUA | 0.265 |
| GCUGAGGAAUUCUUGUACGCAGUUUCUUUGGCUUCACGAAGCCGAUUAAAAGACCGUGUGAAAUGAAUCUCGCUCUGACCAUUUCCCUUUCAUUGCCGACACUGAGCUGC | 0.369 |
| CAGAUUUACAGAGAACUUACACUUCAUCUGUUCCACCUCUCCUGCGAUAGUCCUGGGUGCUCCACUGAUUGGAGGAUAGAGCCAGCUGUCUGACACACAAAUGGUCUUUU | 0.352 |
| AGACUGCUCCAGCUGGGACAUCCAGUCCUCGCUGCUGUUGCUGCUAGUUCGAAGGAUGCCGCCGUGCUGUCUGUGGCCGCCCUCCCAUGUCCUGUCCCCUGUAGCUGCUU | 0.427 |
| AGGCUAGUUUGGUGCCUGCUCUGGGUCAUACACCUGAUCUGGAAGAACAAAGCUUAAGCUGCCUUUGUUAUUUUUUGAAAUUGAAAUAAAGUUUACUAAUUUUGACCAAA | 0.49 |
| AGGGGUGGUGGAGGCAGUGCCCAUGCUGGGCUGAGCCUGCAGUUUUUGUGAGCUCUGGGCUUGUCUCCAUGGGAACAGGGGUGCCUUCUUAGUGAGCUCAUUUCACACAG | 0.51 |

Excerpt of the above (series 1):
| Strand | log fluorescence [z-score] |
| --- | --- |
| GACGGTCTCGGACTGGGGCCGTGCTAG | -0.605 |
| GACGGTATCCTGCTCCTGACGTGCTAG | -0.14 |
| GACGATCTCAGACTCGAGACGTGCTAG | -0.285 |
| TTAGGATTGGACTTTCGGTTAGTGCTA | 9.66 |
| GACGAGCTCAGTCTCGAGACGTGCTAG | -0.282 |
| TTAGGTTTCGGGCCTGGGTTAGTGCTA | 5.29 |
| TCACTTTTCACTTTACAACTGTGCTAG | 2.5 |
